Experimental data pooled from the literature.
Parts stem from different laboratories: compare values within a part only.
UniProt Q94JM3, sequence (whole entry, looked up): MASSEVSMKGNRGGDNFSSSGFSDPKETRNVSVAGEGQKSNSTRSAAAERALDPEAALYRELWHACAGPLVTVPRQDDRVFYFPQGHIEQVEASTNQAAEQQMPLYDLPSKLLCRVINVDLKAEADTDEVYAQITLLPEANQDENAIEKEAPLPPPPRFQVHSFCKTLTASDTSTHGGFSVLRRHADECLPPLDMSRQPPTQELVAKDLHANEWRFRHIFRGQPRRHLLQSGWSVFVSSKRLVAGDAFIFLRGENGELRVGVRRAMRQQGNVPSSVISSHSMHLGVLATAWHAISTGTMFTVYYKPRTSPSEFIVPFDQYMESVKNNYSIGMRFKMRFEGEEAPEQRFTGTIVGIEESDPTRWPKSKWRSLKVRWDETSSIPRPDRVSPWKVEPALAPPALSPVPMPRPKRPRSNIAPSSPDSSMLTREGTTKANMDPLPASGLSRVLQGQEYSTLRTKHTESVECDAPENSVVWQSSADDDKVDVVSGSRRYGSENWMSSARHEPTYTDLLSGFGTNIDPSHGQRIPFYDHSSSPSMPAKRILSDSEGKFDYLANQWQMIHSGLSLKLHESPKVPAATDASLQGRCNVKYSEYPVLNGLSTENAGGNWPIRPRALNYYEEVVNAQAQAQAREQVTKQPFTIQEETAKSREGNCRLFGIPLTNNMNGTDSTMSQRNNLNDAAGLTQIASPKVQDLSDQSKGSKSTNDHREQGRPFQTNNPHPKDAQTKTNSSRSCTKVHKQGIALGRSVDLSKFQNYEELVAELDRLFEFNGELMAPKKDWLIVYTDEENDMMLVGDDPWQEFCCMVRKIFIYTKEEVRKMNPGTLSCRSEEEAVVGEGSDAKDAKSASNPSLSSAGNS
UniProt Q9ZTX9, sequence (whole entry, looked up): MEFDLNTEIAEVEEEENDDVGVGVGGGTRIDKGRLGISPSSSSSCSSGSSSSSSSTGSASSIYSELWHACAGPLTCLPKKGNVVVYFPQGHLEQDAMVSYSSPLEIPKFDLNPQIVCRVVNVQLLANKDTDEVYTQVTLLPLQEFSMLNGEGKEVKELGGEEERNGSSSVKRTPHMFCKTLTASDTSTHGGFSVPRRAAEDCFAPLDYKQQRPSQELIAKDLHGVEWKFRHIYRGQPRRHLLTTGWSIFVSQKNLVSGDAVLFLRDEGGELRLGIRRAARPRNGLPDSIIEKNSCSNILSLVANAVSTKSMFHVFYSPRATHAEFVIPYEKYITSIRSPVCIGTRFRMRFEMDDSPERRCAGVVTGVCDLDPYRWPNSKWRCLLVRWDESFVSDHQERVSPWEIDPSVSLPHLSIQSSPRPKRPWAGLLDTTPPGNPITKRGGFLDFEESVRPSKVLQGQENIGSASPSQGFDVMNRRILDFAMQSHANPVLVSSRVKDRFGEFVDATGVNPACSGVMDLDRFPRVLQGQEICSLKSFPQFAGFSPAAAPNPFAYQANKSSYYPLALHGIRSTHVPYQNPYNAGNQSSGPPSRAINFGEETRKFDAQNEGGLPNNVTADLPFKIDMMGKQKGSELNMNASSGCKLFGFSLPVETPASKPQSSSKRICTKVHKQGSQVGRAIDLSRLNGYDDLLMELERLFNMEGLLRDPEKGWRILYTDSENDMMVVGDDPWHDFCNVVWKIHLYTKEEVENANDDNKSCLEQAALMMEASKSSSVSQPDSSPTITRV
UniProt Q8LAL2, sequence (whole entry, looked up): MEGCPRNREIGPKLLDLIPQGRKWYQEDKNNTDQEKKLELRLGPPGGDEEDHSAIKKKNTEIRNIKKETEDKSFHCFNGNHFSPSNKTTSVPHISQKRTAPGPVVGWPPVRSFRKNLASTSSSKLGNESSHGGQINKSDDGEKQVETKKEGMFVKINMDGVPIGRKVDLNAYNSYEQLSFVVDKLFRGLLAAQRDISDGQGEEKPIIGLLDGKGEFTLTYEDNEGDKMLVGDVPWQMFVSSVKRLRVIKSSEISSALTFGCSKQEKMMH
UniProt P11802, sequence (whole entry, looked up): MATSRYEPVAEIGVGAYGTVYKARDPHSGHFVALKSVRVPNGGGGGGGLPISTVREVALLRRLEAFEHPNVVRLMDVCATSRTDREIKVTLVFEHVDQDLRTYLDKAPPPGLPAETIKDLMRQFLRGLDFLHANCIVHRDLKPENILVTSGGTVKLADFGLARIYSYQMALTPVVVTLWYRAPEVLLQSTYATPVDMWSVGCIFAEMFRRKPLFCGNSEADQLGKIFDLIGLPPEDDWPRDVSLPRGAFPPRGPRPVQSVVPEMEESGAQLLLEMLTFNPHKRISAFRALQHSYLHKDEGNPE
UniProt O23661, sequence (whole entry, looked up): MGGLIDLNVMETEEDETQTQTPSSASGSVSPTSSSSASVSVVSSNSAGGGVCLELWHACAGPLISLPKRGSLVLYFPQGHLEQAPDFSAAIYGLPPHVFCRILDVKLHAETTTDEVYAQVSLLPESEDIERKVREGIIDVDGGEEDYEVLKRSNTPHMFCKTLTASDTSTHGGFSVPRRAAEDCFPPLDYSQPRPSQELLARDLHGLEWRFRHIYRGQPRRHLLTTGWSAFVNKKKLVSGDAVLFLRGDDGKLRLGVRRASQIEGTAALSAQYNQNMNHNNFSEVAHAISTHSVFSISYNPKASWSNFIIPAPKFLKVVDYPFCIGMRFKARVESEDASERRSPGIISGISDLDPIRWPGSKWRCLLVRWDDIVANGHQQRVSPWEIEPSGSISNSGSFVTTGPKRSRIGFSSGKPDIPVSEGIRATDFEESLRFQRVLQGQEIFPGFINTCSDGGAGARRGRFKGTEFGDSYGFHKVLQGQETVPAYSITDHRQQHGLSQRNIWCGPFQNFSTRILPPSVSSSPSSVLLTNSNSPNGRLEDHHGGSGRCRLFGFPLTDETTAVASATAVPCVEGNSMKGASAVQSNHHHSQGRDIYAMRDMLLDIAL
UniProt O24410, sequence (whole entry, looked up): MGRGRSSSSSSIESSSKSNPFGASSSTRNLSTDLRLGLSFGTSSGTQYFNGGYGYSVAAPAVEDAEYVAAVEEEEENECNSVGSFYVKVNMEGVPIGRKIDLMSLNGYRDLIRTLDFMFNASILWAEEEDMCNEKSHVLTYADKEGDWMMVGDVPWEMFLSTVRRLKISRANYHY
UniProt Q9ZSY8, sequence (whole entry, looked up): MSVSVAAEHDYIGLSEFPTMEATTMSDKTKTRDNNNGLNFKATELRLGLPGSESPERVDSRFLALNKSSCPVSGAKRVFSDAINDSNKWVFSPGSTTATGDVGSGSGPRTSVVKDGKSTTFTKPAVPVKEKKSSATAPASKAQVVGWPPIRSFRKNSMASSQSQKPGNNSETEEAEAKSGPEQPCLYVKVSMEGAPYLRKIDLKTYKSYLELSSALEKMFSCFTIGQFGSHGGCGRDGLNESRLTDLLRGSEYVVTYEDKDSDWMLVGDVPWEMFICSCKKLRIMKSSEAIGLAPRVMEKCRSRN
UniProt Q93WC4, sequence (whole entry, looked up): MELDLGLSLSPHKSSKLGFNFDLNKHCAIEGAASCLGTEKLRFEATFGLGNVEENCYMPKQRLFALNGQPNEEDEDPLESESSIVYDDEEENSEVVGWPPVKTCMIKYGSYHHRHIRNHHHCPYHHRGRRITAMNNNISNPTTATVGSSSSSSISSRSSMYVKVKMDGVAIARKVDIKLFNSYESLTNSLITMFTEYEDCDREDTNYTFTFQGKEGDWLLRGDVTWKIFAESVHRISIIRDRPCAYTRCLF

Sample 1
Sequence: B1 (IAA12)
Method: two-hybrid
Relative to: out of 4 tests
Direction: higher = firmer interaction
Measurement: positive tests
B1: IAA12 (Arabidopsis thaliana, UniProt Q38830); chain MRGVSELEVGKSNLPAESELELGLGLSLGGGAWKERGRILTAKDFPSVGSKRSAESSSHQGASPPRSSQVVGWPPIGLHRMNSLVNNQAMKAARAEEGDGEKKVVKNDELKDVSMKVNPKVQGLGFVKVNMDGVGIGRKVDMRAHSSYENLAQTLEEMFFGMTGTTCREKVKPLRLLDGSSDFVLTYEDKEGDWMLVGDVPWRMFINSVKRLRIMGTSEASGLAPRRQEQKDRQRNNPV
IAA26 (Arabidopsis thaliana, UniProt Q8LAL2): 1
IAA27 (Arabidopsis thaliana, UniProt Q9ZSY8): 1
ETT (Arabidopsis thaliana, UniProt O23661): 0
IAA29 (Arabidopsis thaliana, UniProt Q93WC4): 0
ARF4 660-788 (Arabidopsis thaliana, UniProt Q9ZTX9): 0
IAA20 (Arabidopsis thaliana, UniProt O24410); weak activation fusion: 2
ARF2 727-859 (Arabidopsis thaliana, UniProt Q94JM3): 0

Sample 2
Target: Hepatocyte nuclear factor 3-alpha (Foxa1, Mus musculus, UniProt P35582, residues 1-468, full length assumed)
UniProt P35582, sequence (whole entry, looked up): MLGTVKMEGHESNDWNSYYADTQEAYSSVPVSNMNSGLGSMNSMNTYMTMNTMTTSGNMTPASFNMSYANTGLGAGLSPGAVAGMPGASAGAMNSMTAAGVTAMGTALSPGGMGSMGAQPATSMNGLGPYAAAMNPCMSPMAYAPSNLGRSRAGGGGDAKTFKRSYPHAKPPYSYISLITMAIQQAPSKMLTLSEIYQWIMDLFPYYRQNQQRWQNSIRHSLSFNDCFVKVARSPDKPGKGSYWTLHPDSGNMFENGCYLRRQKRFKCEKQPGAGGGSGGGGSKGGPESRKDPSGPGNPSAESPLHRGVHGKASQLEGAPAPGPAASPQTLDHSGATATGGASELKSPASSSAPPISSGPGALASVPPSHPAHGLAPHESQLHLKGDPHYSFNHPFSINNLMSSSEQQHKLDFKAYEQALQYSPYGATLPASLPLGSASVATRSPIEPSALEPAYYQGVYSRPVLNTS
Method: EMSA with sequencing
Molecule type: double-stranded DNA, one strand shown
Matrix: in vitro
Tested at: 10 and 20 nM
Notes: whole designed probe, mean of two concentrations, ends assumed
Relative to: negative control set to 0
Direction: higher = stronger binding
Measurement: normalised bound fraction
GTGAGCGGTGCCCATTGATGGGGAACGGCACCTGCCCTTCTGGCAACTTCTTGGAAACAGTTGGCAGTGTTTGCTTCCTGACTCCTAGCAGGCCGCTGGGGTGCAGCTATTGTGTTTAAGTAATCTGGCCACTCGCCTATTCAGCTTGGCAGCTTGATAGATGCCTACGCCTAGATCTTGTCAAATCGGTTTGTGGTTGAGTGGCTGCCAGGCCTAGAGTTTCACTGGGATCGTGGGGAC: 0.000562 ratio
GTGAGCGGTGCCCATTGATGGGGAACATAATTTTTATTTGAAGATGCCATTTTTCAACATATTCAGATGATTGTGAGTACCATTGATTCTGTATCATATGAACAATGGCAATACCTTCCATGTTTACATAATATTAAAAACCATGTTAAGACTGAATATTTGGTGTAATGGTGCATCACATTATTCTAGCTTCCATACTAGTTGTTTTATTTGTTTGTTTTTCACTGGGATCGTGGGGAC: 0.539 ratio
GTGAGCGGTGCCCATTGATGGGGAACTTAACACTGTTCACTTGTATCAACATTTTACTACTTTGAGTAAAGTGTAAAAACCTATAGGTTCCTTTACCTCCTCCTTATAATTCTCTTAAAAAATTACTCACATACTTTGAGAACCATATCACACAGTATTATAATTTTTGCTTTGACCATCAAATATAATTTAGAAAATCCAACAGGATAGTTTATATTTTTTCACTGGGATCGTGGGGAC: 0.043 ratio
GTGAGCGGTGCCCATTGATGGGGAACAATCAGTTAGAAAAAGATAACCTAGTAGAAAAATGGGCAGAAGGCTTGAGTAGACATTTCTCAAAGAAAACATCCATGTGGAAAAATAAATAAGCAAATAAAGCCAACCATGTGAAAAGGTACCTGACTTCATTAATCATCAAGGGAATGCAAATGAACGTCACGATGCACCACTGCACACTCACCGGAAGGCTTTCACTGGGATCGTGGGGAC: 0.402 ratio
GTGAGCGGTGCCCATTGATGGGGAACGTTTTTTTTTTTAAGTTAGTAGTACCTTCTGTATCCTTCAAACATCTAAAGAGAAAAAGCTAATAGATTGTGCAATATTTCCAGAAGGCAAAGTAATCTTGCAACAAAAAAGTAAAGTAAAAGATGATCTTATGTTTGAAATGTTTCTGAGCTTTGTTTGATGGTTTCTTGATTGTGTGTGTGAGTGTGTGTGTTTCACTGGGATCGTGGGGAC: 0.021 ratio
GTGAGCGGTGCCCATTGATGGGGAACTCACATCAAAGCCTCTGAGCTTAAATATTAGGCTATTTACCATGGCTGTGAGAGACGGGGAACAAAAAACAGTGTTTAGTTAAATCAACAGCTATGTTTACACTCTCTGTATAAACAGTGCAATGTCCTCAAAGAAATCACACAAGAAGGAACAGTAACTCCTGCCAACACACTGGTAAACTTGGCTCTGCCATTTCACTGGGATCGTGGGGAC: 0.388 ratio
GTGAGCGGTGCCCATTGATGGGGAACATCTTCCCCCTCTTCCTTGCCCCACCAGCTCACCTTCCCGGGTTATTTGCACAAAGGAAAATAAATAAAGCCGGCATTCGTTAACGCAGTTCTGGCGCAAACTGCTGTTTGCTCTGCATGAATCATGGTCCTTACGCGACGCCAGGCTCCGGGAGAGCAAAGCACCGTGTCAGGCGCATGATCCGGGCTCGCCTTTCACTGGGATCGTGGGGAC: 0.383 ratio
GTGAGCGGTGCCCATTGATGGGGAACATTCATGTGAAAATTACGATAATAACACATATCTCACCCAGAAGAAAAAAAAATTGTGAAGAAACTTAGAAGTTCTAAAAATATAAGGTATAATGTAATCTTGAATAACAATAACATTTATAGCTTGATGTTTTTTCAGGCCTTGTAATTTTCAAAATATGTGTATATAGTTAGCTGATTAGAAGAAAATATGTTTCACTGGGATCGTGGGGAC: 0.032 ratio

Sample 3
Target: RNA binding protein fox-1 homolog 2, RRM domain, GST-SBP tag (RBFOX2, Homo sapiens, UniProt O43251-10, residues 100-194)
Method: RNA Bind-n-Seq
Molecule type: RNA
Matrix: in vitro
Tested at: 365 nM
Notes: natural RNA segment, single round, ends assumed
Relative to: no-protein control
Direction: higher = stronger binding
Measurement: RBNS enrichment (R)
Construct (chain): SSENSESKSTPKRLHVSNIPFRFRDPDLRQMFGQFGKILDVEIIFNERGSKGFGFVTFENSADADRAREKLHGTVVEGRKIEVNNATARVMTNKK
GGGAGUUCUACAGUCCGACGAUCUUUUCCUCUCCAGAGGGAUCAGGGUCCUCUUAGGGAGUGACGGGCUUUUCAUAUAUUUUUGCUGAAGAAUAUAUGGAAAGGGUGGCAUUUGCGUCACGUGGACCAGGGACUGGAAUUCUCGGGUGCCAA: 0.493
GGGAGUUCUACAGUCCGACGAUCUUACCCUGCCAGUCCCCUGCCUCACUCCACCAUGAAGGUCUCUGCUUUCCUGUGACUUGAUUGGGAUACAGGCAUUUAACUUUGGAAGGCUAGUUUGGUGCCUGCUCUGGUGGAAUUCUCGGGUGCCAA: 0.524
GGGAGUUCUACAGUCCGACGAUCAAACCCUCAGGCACCAGCACAGGGCUCUGGGUGACUCAGUAAAACUAACGUUUGUCUCUGACAAGAUCAGCUGUAGGCUCACCGGCCAGAGAAGACCACUGUGAGCAUUUUGGAAUUCUCGGGUGCCAA: 0.356
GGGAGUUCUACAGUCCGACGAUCCAUGGCUUCACUUUCCUGUGUUAUGAGAAGGUCACACUUUGGAAUACUGAAGGACAAUCCUGAAGUGCUGCAGCGCAUAGUGAAUGCCUCUUGGUGUUUUCACGUUCGUCUGGAAUUCUCGGGUGCCAA: 0.281
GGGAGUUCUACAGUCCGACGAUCCAGGAACCAAACACCUCCCCUGCACCUGUUCAUUCCUCCCAGUGGAGACUUCAGAUUGGAAUACCUUGGGAUCUCCUCACCCCACUUUACAGAACUGCCCAAUCCAGGGGUGGAAUUCUCGGGUGCCAA: 0.428
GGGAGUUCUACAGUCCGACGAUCCCACCCUGCCCCCACCACAACUCUCUCUUCAGCCACCAUUGCUACCAGGAGAACCACUACAUGCAACUCACGCCCCUUGCCCUAUCACAGGGUUGGGCCUAGACGGAGUCUGGAAUUCUCGGGUGCCAA: 0.948
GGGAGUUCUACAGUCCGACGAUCGACUGAGUUCCACCUCCUGAAGCCAGACUCCACCUCUUGUGCUUUUUUGCUUGGGAAAAAGGAGUUUUUCUUUAGAAACAGUGCCAAGAAUGAUAUAAACUACUUUUAACUGGAAUUCUCGGGUGCCAA: 0.417
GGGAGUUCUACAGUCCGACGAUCGACUGUUUUUCAGUUGCUAUAUCAUAUUUUAAAAGUUUCUUUUCUAGCUUGACACUGUACUAGCUUCCUGAAUUGUUUGAAAAUACUACUUAAAUAUAAGACAACAGGAAUGGAAUUCUCGGGUGCCAA: 0.954

Other studies, line by line
Nc1nc(Nc2ccc(S(N)(=O)=O)cc2)nn1C(=S)Nc1c(F)cccc1F — remaining activity (Cyclin-dependent kinase 4, with cyclin D3 (CDK4, Homo sapiens, UniProt P11802); enzyme activity, inhibitor; 0.5 µM; relative to: control): 3.67%

For quick reference, copied from above (sample 1):
IAA29 (Arabidopsis thaliana, UniProt Q93WC4): 0
ARF4 660-788 (Arabidopsis thaliana, UniProt Q9ZTX9): 0
IAA20 (Arabidopsis thaliana, UniProt O24410); weak activation fusion: 2
